Measurements pooled from the literature.
Protocols differ between the studies behind these lines.

Structure (SMILES) = CC[C@H](C)[C@H](NC(=O)[C@H](Cc1ccccc1)NC(=O)[C@H](CCC(=O)O)NC(=O)[C@H](CCCCNC(=O)COCCOCCNC(=O)COCCOCCNC(=O)CC[C@H](NC(=O)CCCCCCCCCCCCCCCCC(=O)O)C(=O)O)NC(=O)[C@H](C)NC(=O)[C@H](C)NC(=O)[C@H](CCC(N)=O)NC(=O)CNC(=O)[C@H](CCC(=O)O)NC(=O)[C@H](CC(C)C)NC(=O)[C@H](Cc1ccc(O)cc1)NC(=O)[C@H](CO)NC(=O)[C@H](CO)NC(=O)[C@@H](NC(=O)[C@H](CC(=O)O)NC(=O)[C@H](CO)NC(=O)[C@@H](NC(=O)[C@H](Cc1ccccc1)NC(=O)[C@@H](NC(=O)CNC(=O)[C@H](CCC(=O)O)NC(=O)C(C)(C)NC(=O)[C@@H](N)Cc1cnc[nH]1)[C@@H](C)O)[C@@H](C)O)C(C)C)C(=O)N[C@@H](C)C(=O)N[C@@H](Cc1c[nH]c2ccccc12)C(=O)N[C@@H](CC(C)C)C(=O)N[C@H](C(=O)N[C@@H](CCCNC(=N)N)C(=O)NCC(=O)N[C@@H](CCCNC(=N)N)C(=O)NCC(=O)O)C(C)C; assay = refers to: Severe adverse events; system = type 2 diabetes patients; setting = dose not given; how to read = reference: subjects; adverse event incidence = 6.7%
Structure (SMILES) = Cc1ccc(Sc2ccccc2N2CCNCC2)c(C)c1; assay = TEAE abdominal distension; system = healthy adult men; setting = oral, 5 mg single dose, 10 days; adverse event incidence = 0%
Structure (SMILES) = CCO[C@H]1CCN(Cc2c(OC)cc(C)c3[nH]ccc23)[C@H](c2ccc(C(=O)O)cc2)C1; assay = refers to: abdominal distension; system = PNH patients with active haemolysis; setting = oral, 100 mg, extension phase; adverse event incidence = 0%
Structure (SMILES) = C[C@H]1[C@H]2N(C(=O)CN(C)N2C(=O)NCc2ccccc2)[C@@H](Cc2ccc(OP(=O)(O)O)cc2)C(=O)N1Cc1cccc2cccnc12; assay = refers to: Fever; system = HIV/HCV haemophilia cirrhosis; setting = concentration not given, phase I trial; adverse event incidence = 60%
Structure (SMILES) = Cc1c(Cl)c(C)[n+]([O-])c(Cl)c1-c1noc(-c2cc(O)c(O)c([N+](=O)[O-])c2)n1; assay = refers to: Mild severity; system = healthy Caucasian subjects; setting = oral, 50 mg, 10 days; adverse event incidence = 33.3%
Structure (SMILES) = CC[C@H](C)CCCCC(=O)N[C@@H](CCN)C(=O)N[C@H](C(=O)N[C@@H](CCN)C(=O)N[C@H]1CCNC(=O)[C@H]([C@@H](C)O)NC(=O)[C@H](CCN)NC(=O)[C@H](CCN)NC(=O)[C@H](CC(C)C)NC(=O)[C@@H](Cc2ccccc2)NC(=O)[C@H](CCN)NC1=O)[C@@H](C)O; assay = refers to: nervous system disorders; system = all subjects; setting = intravenous, 0.75 mg/kg; adverse event incidence = 81.8%
Structure (SMILES) = NCCONC(=O)[C@@H]1CC[C@@H]2CN1C(=O)N2OS(=O)(=O)O; assay = refers to: leading to temporary interruption; system = healthy Chinese men; setting = intravenous, 1 g, treatment-emergent; adverse event incidence = 0%
Structure (SMILES) = Cc1nc(-c2ccc(OCC(C)C)c(C#N)c2)sc1C(=O)O; system = healthy Chinese subjects; setting = oral, 40 mg, fed, both formulations; adverse event incidence = 25%
Structure (SMILES) = O=C1CCc2ccc(OCCCCN3CCN(c4cccc(Cl)c4Cl)CC3)cc2N1; assay = refers to: Akathisia; system = genotyped patients, CYP2D6 normal metabolizers; setting = dose not given, long-acting oral or depot; adverse event incidence = 1.7%
Structure (SMILES) = CC(C)n1c(Nc2cccnc2)nc2cnc(Nc3ccc(N4CCN(C)CC4)cc3)nc21; assay = refers to: Hypercalcemia; system = healthy male subjects; setting = oral, 100 mg, together with: itraconazole; adverse event incidence = 0%
Structure (SMILES) = FC(F)(F)c1ccc(CNc2ccc(Cc3c[nH]c4ncc(Cl)cc34)cn2)cn1; assay = refers to: Hypertension; system = patients with advanced solid tumours; setting = oral, dose not given, grade 3 and 4, possibly related to drug; adverse event incidence = 11%
Structure (SMILES) = Cc1c(C(=O)O)ccc2c3n(nc12)[C@@H]1[C@H](C3)N(CC2CC2)[C@@]2(C(=O)Nc3cc(Cl)ccc32)[C@H]1c1cccc(Cl)c1F; assay = phase Ia trial, refers to: Vomiting; system = cancer patients; setting = oral, dose not given; adverse event incidence = 64%
Structure (SMILES) = CC(=O)O[C@H]1C(=O)[C@@]2(C)[C@H]([C@H](OC(=O)c3ccccc3)[C@]3(O)C[C@H](OC(=O)[C@H](O)[C@@H](NC(=O)c4ccccc4)c4ccccc4)C(C)=C1C3(C)C)[C@]1(OC(C)=O)CO[C@@H]1C[C@@H]2O; assay = refers to: Rash; system = patients with advanced solid tumours; setting = intravenous, dose not given, grade 1 and 2, possibly related to drug; adverse event incidence = 13%
Structure (SMILES) = CN(C)C(=N)N=C(N)N; system = gestational diabetes women; setting = dose not given, treated arm; adverse event incidence = 20%

Excerpt of the above:
Structure (SMILES) = C[C@H]1[C@H]2N(C(=O)CN(C)N2C(=O)NCc2ccccc2)[C@@H](Cc2ccc(OP(=O)(O)O)cc2)C(=O)N1Cc1cccc2cccnc12; assay = refers to: Fever; system = HIV/HCV haemophilia cirrhosis; setting = concentration not given, phase I trial; adverse event incidence = 60%
